Published values pooled from the literature.
Each line is one published result; not all experiments were run side by side. ± marks the error that the study gave.
Chain of UniProt O96017 (whole entry, looked up): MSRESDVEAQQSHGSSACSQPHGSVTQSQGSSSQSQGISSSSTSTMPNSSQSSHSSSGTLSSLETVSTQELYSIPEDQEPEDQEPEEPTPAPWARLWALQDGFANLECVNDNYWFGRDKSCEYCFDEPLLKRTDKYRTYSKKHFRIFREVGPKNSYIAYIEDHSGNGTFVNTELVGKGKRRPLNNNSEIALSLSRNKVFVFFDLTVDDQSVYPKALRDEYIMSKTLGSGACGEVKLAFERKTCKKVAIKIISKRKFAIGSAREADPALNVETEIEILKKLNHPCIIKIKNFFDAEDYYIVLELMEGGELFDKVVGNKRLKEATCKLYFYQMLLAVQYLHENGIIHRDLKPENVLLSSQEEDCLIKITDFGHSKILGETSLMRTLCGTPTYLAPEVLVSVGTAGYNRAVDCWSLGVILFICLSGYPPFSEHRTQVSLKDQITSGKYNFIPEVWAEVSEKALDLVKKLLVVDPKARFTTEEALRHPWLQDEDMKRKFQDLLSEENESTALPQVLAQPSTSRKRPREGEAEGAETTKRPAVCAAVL

For `CC(C)C[C@@H](NC(=O)[C@@H](CCCNC(=N)N)NC(=O)[C@@H](Cc1c[nH]cn1)NC(=O)[C@@H](Cc1c[nH]c2ccccc12)NC(=O)[C@@H](Cc1c[nH]cn1)NC(=O)[C@@H](Cc1ccccc1)NC(=O)[C@H](NC(=O)[C@@H](Cc1ccc(O)cc1)NC(=O)CNC(=O)CNC(=O)CCOCCOCCOCCNC(=O)CN1CCN(CC(=O)O)CCN(CC(=O)O)CC1)[C@H](C)O)C(=O)N[C@H](CC(N)=O)C(=O)N1CCC[C@@H]1C(=O)O` [gallium-68 labelled], the tissue uptake was 1.71 ± 0.39 %ID/g (C57BL/6 mice, male, spleen; intravenous, 1.85 MBq, 60 min, added: blocking antibody).
With `O=C(CN1CCN(CC(=O)NCP(=O)([O-])[O-])CCN(CC(=O)NCP(=O)([O-])[O-])CCN(CC(=O)NCP(=O)([O-])[O-])CC1)NCP(=O)([O-])[O-].[Gd+3]` the tissue uptake was 0.021 ± 0.015 % injected dose/g (Sprague-Dawley rat, muscle; intravenous (tail vein), dose not given, 2 h).
`CC[C@H](C)[C@H](NC(=O)[C@H](CCCNC(=N)N)NC(=O)[C@H](CCCCN)NC(=O)[C@H](Cc1ccc(O)cc1)NC(=O)[C@H](CC(=O)O)NC(=O)[C@H](C)NC(=O)CNC(=O)CCOCCOCCOCCNC(=O)CN1CCN(CC(=O)O)CCN(CC(=O)O)CCN(CC(=O)O)CC1)C(=O)N[C@H](C(=O)N[C@H](C(=O)N[C@@H](CCCCN)C(=O)N[C@H](C(=O)N[C@@H](CC(N)=O)C(N)=O)C(C)C)C(C)C)[C@@H](C)O` [copper-64 labelled] gave a tissue uptake of 2.09 ± 0.014 %ID/g (ex vivo gamma counting; C57BL/6J male mice, B16-F10 tumour, lung; intravenous, 1.85 MBq, 100 min).
The tissue uptake of `CSCC[C@H](NC(=O)CNC(=O)[C@H](CCCCN)NC(=O)[C@H](CC(C)C)NC(=O)[C@@H]1CCCN1C(=O)[C@H](CO)NC(=O)[C@H](Cc1c[nH]cn1)NC(=O)[C@H](Cc1c[nH]c2ccccc12)NC(=O)[C@H](CCCNC(=N)N)NC(=O)[C@H](CC(C)C)NC(=O)[C@H](CCCNC(=N)N)NC(=O)[C@H](Cc1c[nH]c2ccccc12)NC(=O)[C@H](CS)NC(=O)CCCCCNC(=O)CN1CCN(CC(=O)O)CCN(CC(=O)O)CCN(CC(=O)O)CC1)C(=O)O` [copper-64 labelled] is reported as 0.81 %ID/g (ex vivo biodistribution; BALB/c nude mice, bone; intravenous, dose not given, 18 h, Huh-7 tumour-bearing).
The tissue uptake of `CC[C@H](C)[C@H](NC(=O)[C@@H](Cc1c[nH]c2ccccc12)NC(=O)[C@@H]1CCCN1C(=O)[C@H](CCCCN)NC(=O)[C@H](CCCCN)NC(=O)CCNC(=O)CCNC(=O)CN1CCN(CC(=O)O)CCN(CC(=O)O)CCN(CC(=O)O)CC1)C(=O)N[C@@H](C[Si](C)(C)C)C(=O)O` [gallium-68 labelled] is reported as 0.04 ± 0.03 %ID/g (nude mouse HT-29 xenograft, brain; 90 min).
`O=C([O-])CNC(=O)CN1CCN(CC(=O)NCC(=O)[O-])CCN(CC(=O)NCC(=O)[O-])CCN(CC(=O)NCC(=O)[O-])CC1.[177Lu+3]` gave a tissue uptake of 0.003 ± 0.001 % injected dose/g (Sprague-Dawley rat, muscle; intravenous (tail vein), dose not given, 2 h).
With `C[C@H](O)[C@@H](NC(=O)[C@H]1CCCN1C(=O)[C@@H](CCCCN)NC(=O)[C@@H](CO)NC(=O)[C@@H](Cc1ccc(O)cc1)NC(=O)[C@@H](CC(N)=O)NC(=O)CCOCCOCCOCCNC(=O)CN1CCN(CC(=O)O)CCN(CC(=O)O)CCN(CC(=O)O)CC1)C(=O)N[C@H](CC(=O)O)C(=O)N[C@H](CCCNC(=N)N)C(=O)N[C@H](CCC(N)=O)C(=O)N[C@H](Cc1ccc(O)cc1)C(=O)N[C@H](Cc1c[nH]cn1)C(=O)N[C@H](Cc1ccccc1)C(N)=O` [copper-64 labelled] the tissue uptake was 1.78 ± 0.29 %ID/g (C57BL/6J mice, lung; intravenous, 1.85 MBq, 0.3333 h, radiolabelled).
For `O=C1NC2(CC2)COc2ncc(F)cc2[C@H]2COCCN2c2ccn3ncc1c3n2`, “organ-to-body weight ratio” read 0.378 ± 0.067% (Sprague-Dawley rat, female, heart; oral, 2.5 mg/kg/day, 4 weeks, end of treatment).
The tissue uptake of `CC[C@H](C)[C@H](NC(=O)[C@H](CCCCN)NC(=O)CNC(=O)[C@H](CC(C)C)NC(=O)[C@H](Cc1ccccc1)NC(=O)[C@H](CCCCN)NC(=O)[C@H](CO)NC(=O)[C@H](Cc1ccccc1)NC(=O)[C@H](Cc1c[nH]c2ccccc12)NC(=O)[C@H](CCC(N)=O)NC(=O)[C@@H](NC(=O)[C@H](Cc1ccccc1)NC(=O)CCCCCNC(=O)CN1CCN(CC(=O)O)CCN(CC(=O)O)CCN(CC(=O)O)CC1)C(C)C)C(=O)N[C@@H](CCC(=O)O)C(=O)N1CCC[C@H]1C(=O)N[C@@H](CC(=O)O)C(=O)N[C@H](C(=O)N[C@@H](CO)C(=O)N[C@@H](CCC(N)=O)C(=O)N[C@H](C(=O)N[C@@H](CCC(N)=O)C(=O)N[C@@H](CC(=O)O)C(=O)N1CCC[C@H]1C(=O)N[C@@H](CC(N)=O)C(=O)N[C@@H](CC(=O)O)C(=O)N[C@@H](CCC(N)=O)C(=O)N[C@@H](Cc1ccc(O)cc1)C(=O)N[C@@H](CCC(=O)O)C(=O)N1CCC[C@H]1C(=O)N[C@@H](Cc1ccccc1)C(=O)O)C(C)C)C(C)C` [copper-64 labelled] is reported as 1.74 ± 0.3 %ID/g (GZMB-/- mice, CT26 tumour-bearing, tumor; 2 h, checkpoint inhibitor-treated).
With `CCCC[C@H]1C(=O)N(C)[C@@H](CCCC)C(=O)N[C@@H](CCCNC(=O)CN2CCN(CC(=O)O)CCN(CC(=O)O)CCN(CC(=O)O)CC2)C(=O)N[C@H](C(=O)NCC(N)=O)CSCC(=O)N[C@@H](Cc2ccc(O)cc2)C(=O)N(C)[C@@H](C)C(=O)N[C@@H](CC(N)=O)C(=O)N2CCC[C@H]2C(=O)N[C@@H](Cc2c[nH]cn2)C(=O)N[C@@H](CC(C)C)C(=O)N(C)CC(=O)N[C@@H](Cc2c[nH]c3ccccc23)C(=O)N[C@@H](CO)C(=O)N[C@@H](Cc2c[nH]c3ccccc23)C(=O)N1C` [gallium-68 labelled] the tissue uptake was 12 ± 2.53 %ID/g (NOD/SCID mice, CHO-hPD-L1 xenograft, skin; 60 min, added: blocking agent 50 µg co-injected).
`CN1Cc2cc(Cl)ccc2-n2c(nnc2C2CCN(c3cccc([18F])n3)CC2)C1` gave a tissue uptake of 10.1 ± 5.55 %ID/g (C57BL/6 mouse male, pancreas; intravenous, 3.7 MBq, 30 min).
With `CS(C)(=O)=Nc1ccc(-c2ccc(-c3nc4cc(O[C@@H]5CO[C@H]6[C@@H]5OC[C@H]6O)[nH]c4cc3F)cc2)cc1` the inhibition was 11% (CHEK2 (Homo sapiens, UniProt O96017); enzyme activity, inhibitor; 10 µM).
`COc1ccccc1-c1n[nH]c2nc(NC3CCN(C(=O)Cc4ccc(F)cc4F)CC3)ncc12` has a relative abundance of 1.12 (bead binding, competition bead pull-down, measured: LINJ.36.2070; Leishmania donovani axenic amastigote extract; 10 µM; relative to: vehicle).
